Results collected from several papers.
Compare with care: the assays were run in different laboratories. Numbers after ± are the reported error.
Organism: Plasmodium falciparum

`Fc1cccc(COc2ccc(Nc3ncnc4ccc(-c5cccc(CN6CCOCC6)c5)cc34)cc2Cl)c1` gave an EC50 of 190 nM (parasite growth, SYBR Green; D6; blood stage).
`CCCN(Cc1nnc(-c2ccco2)o1)C(=O)C1CCCN(C(=O)c2ccc(Cl)cc2)C1` (centres unmarked) has an EC50 of 187 nM (parasite growth, SYBR Green; 3D7; 72 h).
`O=S(=O)(c1ccc(-c2ccc3ncnc(Nc4ccc(OCc5cccc(Cl)c5)c(Cl)c4)c3c2)cc1)N1CCOCC1` has an EC50 of 330 nM (parasite growth, SYBR Green fluorescence; C235 (TM91C235), drug-resistant).
With `Oc1cccc2c1[nH]c1c(C3=CC4(O)CCC=CCCCCN5CCC3C3(CC6C=CCCCCN6C43)C5)nccc12` (single isomer, unassigned; (+)) the selectivity index was 35 (W2, chloroquine-resistant; relative to: Vero IC50 over W2 IC50).
For `CN1CCN(S(=O)(=O)c2ccc(-c3ccc4ncnc(Nc5ccc(F)cc5)c4c3)cc2)CC1`, the EC50 was 360 nM (parasite growth, SYBR Green; D6; blood stage).
For `COc1cc2c3cc1Oc1cc(ccc1O)CC1c4c(cc(OC)c(O)c4Oc4ccc(cc4)CC3N(C)CC2)CCN1C` (centres unmarked), the inhibition was 100% (erythrocyte invasion; 17 µM).
The EC50 of `O=C1C(O)=C([C@H]2CC[C@H](c3ccc(Cl)cc3)CC2)C(=O)c2ccccc21` is reported as 1 ± 0.2 nM (parasite growth; K1).
With `Cc1cc(Cl)ccc1OC(C)C(=O)N1CCc2ccccc21` (centres unmarked) the EC50 was 37.5 ± 6 nM (parasite growth).
`COC(=O)C1=CO[C@@H](C)[C@@H]2Cn3ccc4c5ccccc5nc-4c3C[C@H]12` gave a resistance index of 0.04 (C2B, atovaquone-resistant; 48 h; relative to: C2B over 3D7).
The IC50 of `C[C@@H]1CC[C@H]2[C@@H](C)C(=O)O[C@@H]3O[C@@]4(C)CC[C@@H]1[C@]32OO4` is reported as 19.3 nM (parasite growth, SYBR Green; 3D7; 72 h, blood stage).
`COc1ccc2cc1Oc1cc3c(cc1OC)CCN(C)C3Cc1ccc(cc1)Oc1c(O)c(OC)cc3c1C(C2)N(C)CC3` (centres unmarked) has an IC50 of 500 nM (parasite growth, inhibitor, SYBR Green I; 3D7).
The EC50 of `OC(c1cc(C(F)(F)F)nc2c(C(F)(F)F)cccc12)C1CCCCN1` (centres unmarked) is reported as 3.6 ± 1.3 nM (parasite growth; K1).
The EC50 of `CN1CCN(S(=O)(=O)c2cccc(-c3ccc4ncnc(Nc5ccc(OCc6cccc(F)c6)c(Cl)c5)c4c3)c2)CC1` is reported as 84 nM (parasite growth, SYBR Green fluorescence; W2, drug-resistant).
`Cc1nc2c(C#N)cccc2n1-c1ccc(C(=O)NC2CC2)s1` gave an EC50 of 6.73 nM (parasite growth, SYBR Green; 3D7).
With `CN(C)S(=O)(=O)c1ccccc1-c1ccc2ncnc(Nc3ccc(OCc4cccc(F)c4)c(Cl)c3)c2c1` the EC50 was 1800 nM (parasite growth, SYBR Green fluorescence; W2, drug-resistant).
With `C[C@H]1Cc2c([nH]c3cc(Cl)c(F)cc23)[C@@]2(N1)C(=O)Nc1ccc(Cl)cc12` the EC50 was 1.4 ± 0.2 nM (parasite growth; CAM3 REV).
The EC50 of `COc1ccccc1-n1c(SCC(=O)Nc2ccccc2F)nc2cccnc21` is reported as 332 ± 130 nM (parasite growth, SYBR Green; 3D7 wild type; 72 h).
`O[C@]12C=C(c3nccc4c3[nH]c3ccccc34)[C@@H]3CCN(CCCC/C=C\CC1)C[C@@]31C[C@@H]3/C=C\CCCCN3[C@H]12` has an IC50 ratio of greater than 3 fold (W2, chloroquine-resistant; relative to: compound over 4).
`CC1CCC(C(C)(C)C(=O)Nc2ccc(Oc3ccccc3)cc2)CC1` (centres unmarked) gave an IC50 of 56 nM (parasite growth, SYBR Green; DD2; blood stage).
For `C[C@H](Oc1ccc(C(=O)c2ccc(F)cc2)cc1)C(=O)N1CCc2ccc(C(F)(F)F)cc21`, the EC50 was 22.5 ± 6 nM (parasite growth).
The IC50 of `COCCN(C)C(C)C(=O)NC(Cc1ccc(-c2ccccc2)cc1)B(O)O` (centres unmarked) is reported as 557 ± 23 nM (parasite growth; Dd2-B2 wild type; 72 h).
For `O=S(=O)(c1ccc(-c2ccc3ncnc(Nc4ccc(OCc5cccc(F)c5)cc4)c3c2)cc1)N1CCOCC1`, the EC50 was 850 nM (parasite growth, SYBR Green fluorescence; C235 (TM91C235), drug-resistant).
`Cc1nc2ccc(-c3ccc(OC(F)(F)F)cc3)cc2c(O)c1C#N` has an EC50 of 11.7 ± 5 nM (parasite growth; Dd2).
`CC(C)(C)OC(=O)N1CCN(c2ccc(-c3ccc4ncnc(Nc5ccc(OCc6cccc(F)c6)c(Cl)c5)c4c3)cc2)CC1` gave an EC50 of 1100 nM (parasite growth, SYBR Green fluorescence; C235 (TM91C235), drug-resistant).
Under activity, `Nc1ncnc2c1c(-c1ccc(Oc3ccccc3)cc1)cn2C1CCCC1` is recorded as “active” (growth, SYBR green; FVO; concentration not given, 36 h).
With `CCN(CC)CCCC(C)Nc1ccnc2cc(Cl)ccc12` (centres unmarked) the EC50 was 431 ± 57.5 nM (parasite growth; Dd2-ATV).
The EC50 of `CN1CCN(S(=O)(=O)c2ccc(-c3ccc4ncnc(Nc5ccccc5)c4c3)cc2)CC1` is reported as 730 nM (parasite growth, SYBR Green fluorescence; C235 (TM91C235), drug-resistant).
For `COc1ccccc1-n1ccnc1SCC(=O)Nc1cc(C(F)(F)F)ccc1Cl`, the EC50 was 2.25 nM (parasite growth, SYBR Green; 3D7).
`CC(NC(=O)c1cccc(C(c2ccccc2)N2C(=N)NC(C)(C(C)C)CC2=O)c1)c1ccccc1` (centres unmarked) has an EC50 of 48.3 nM (parasite growth; 3D7-compound.1 resistant line).
